Results pooled from the literature.
Each numbered part is a random draw from the data of one study; scales do not carry over between parts.
Chain of UniProt P42336 (whole entry, unmodified, looked up): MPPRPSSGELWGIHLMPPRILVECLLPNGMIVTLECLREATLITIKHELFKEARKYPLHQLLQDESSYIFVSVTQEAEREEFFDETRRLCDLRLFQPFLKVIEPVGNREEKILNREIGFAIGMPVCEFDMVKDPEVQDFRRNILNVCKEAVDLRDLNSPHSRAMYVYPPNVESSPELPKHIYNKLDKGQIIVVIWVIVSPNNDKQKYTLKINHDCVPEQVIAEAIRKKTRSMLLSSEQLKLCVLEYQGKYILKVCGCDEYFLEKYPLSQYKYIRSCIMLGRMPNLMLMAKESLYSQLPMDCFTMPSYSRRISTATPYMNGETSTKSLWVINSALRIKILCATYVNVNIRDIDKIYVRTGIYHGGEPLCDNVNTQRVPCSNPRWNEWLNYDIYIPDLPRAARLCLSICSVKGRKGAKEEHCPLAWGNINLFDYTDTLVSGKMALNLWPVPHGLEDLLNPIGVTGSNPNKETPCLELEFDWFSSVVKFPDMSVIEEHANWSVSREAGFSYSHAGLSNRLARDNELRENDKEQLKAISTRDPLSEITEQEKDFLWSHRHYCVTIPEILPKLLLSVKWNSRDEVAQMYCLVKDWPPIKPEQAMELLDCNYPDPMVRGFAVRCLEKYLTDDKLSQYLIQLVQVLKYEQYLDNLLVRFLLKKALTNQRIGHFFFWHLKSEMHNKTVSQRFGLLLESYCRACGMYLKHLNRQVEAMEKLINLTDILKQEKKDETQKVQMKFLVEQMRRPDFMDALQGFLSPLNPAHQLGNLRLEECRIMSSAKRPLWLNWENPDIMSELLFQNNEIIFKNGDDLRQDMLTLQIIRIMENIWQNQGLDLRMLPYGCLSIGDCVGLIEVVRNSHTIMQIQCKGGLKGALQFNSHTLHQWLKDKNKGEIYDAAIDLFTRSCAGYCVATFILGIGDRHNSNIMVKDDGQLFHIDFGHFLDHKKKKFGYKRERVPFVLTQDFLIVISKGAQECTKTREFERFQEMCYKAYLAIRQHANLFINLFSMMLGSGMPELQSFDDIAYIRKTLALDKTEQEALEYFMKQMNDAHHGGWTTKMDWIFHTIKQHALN
Chain of UniProt P23443 (whole entry, looked up): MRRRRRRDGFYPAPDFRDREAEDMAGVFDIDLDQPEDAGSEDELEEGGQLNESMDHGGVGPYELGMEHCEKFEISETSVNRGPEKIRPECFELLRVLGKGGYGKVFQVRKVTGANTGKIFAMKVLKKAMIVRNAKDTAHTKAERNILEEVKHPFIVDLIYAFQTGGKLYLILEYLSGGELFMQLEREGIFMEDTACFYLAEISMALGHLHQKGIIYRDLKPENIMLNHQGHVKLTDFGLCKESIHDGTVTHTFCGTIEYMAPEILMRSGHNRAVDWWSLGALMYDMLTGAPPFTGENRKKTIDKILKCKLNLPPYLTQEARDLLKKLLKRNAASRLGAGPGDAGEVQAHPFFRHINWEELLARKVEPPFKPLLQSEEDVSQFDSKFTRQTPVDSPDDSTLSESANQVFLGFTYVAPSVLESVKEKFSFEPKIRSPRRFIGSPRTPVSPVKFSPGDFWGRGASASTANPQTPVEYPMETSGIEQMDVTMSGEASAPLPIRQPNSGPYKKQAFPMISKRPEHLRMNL
Chain of UniProt Q15418 (whole entry, looked up): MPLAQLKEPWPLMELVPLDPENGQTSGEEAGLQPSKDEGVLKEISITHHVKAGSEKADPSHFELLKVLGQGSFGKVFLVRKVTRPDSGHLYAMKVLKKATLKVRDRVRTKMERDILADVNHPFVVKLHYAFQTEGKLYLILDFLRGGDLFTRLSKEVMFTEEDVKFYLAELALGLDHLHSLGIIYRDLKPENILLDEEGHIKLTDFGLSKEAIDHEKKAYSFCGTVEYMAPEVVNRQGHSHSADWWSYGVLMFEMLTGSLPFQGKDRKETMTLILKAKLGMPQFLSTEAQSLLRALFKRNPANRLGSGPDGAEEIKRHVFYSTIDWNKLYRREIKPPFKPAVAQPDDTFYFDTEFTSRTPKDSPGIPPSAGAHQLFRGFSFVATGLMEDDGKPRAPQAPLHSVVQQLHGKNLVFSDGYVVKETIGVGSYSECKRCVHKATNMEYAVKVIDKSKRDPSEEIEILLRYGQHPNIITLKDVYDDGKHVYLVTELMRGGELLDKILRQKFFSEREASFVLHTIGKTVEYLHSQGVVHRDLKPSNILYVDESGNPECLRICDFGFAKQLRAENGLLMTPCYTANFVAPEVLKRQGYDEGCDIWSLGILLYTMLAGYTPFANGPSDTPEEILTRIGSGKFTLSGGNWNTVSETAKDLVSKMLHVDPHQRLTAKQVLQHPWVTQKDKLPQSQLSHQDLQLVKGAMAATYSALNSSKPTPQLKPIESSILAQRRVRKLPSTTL
Chain of UniProt Q02156 (whole entry, looked up): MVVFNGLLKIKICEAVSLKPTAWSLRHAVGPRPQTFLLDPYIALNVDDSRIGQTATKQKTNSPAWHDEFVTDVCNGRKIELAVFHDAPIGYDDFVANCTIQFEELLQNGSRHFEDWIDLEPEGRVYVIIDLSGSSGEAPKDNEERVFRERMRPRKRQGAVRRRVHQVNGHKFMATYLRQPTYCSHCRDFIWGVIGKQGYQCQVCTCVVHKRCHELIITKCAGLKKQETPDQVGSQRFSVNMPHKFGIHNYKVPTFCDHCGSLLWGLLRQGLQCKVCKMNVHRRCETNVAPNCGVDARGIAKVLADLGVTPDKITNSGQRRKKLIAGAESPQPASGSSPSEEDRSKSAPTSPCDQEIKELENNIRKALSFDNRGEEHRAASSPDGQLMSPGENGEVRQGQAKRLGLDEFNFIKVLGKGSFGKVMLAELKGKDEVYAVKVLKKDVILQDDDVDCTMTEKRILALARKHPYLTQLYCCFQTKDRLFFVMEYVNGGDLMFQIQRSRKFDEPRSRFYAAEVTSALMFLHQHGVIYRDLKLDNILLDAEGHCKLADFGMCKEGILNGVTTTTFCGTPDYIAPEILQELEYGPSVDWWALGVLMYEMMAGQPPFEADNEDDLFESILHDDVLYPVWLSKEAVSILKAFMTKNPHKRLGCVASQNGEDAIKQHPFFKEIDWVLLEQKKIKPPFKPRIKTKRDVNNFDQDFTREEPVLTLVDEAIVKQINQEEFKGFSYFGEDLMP
Chain of UniProt Q9UPE1 (whole entry, looked up): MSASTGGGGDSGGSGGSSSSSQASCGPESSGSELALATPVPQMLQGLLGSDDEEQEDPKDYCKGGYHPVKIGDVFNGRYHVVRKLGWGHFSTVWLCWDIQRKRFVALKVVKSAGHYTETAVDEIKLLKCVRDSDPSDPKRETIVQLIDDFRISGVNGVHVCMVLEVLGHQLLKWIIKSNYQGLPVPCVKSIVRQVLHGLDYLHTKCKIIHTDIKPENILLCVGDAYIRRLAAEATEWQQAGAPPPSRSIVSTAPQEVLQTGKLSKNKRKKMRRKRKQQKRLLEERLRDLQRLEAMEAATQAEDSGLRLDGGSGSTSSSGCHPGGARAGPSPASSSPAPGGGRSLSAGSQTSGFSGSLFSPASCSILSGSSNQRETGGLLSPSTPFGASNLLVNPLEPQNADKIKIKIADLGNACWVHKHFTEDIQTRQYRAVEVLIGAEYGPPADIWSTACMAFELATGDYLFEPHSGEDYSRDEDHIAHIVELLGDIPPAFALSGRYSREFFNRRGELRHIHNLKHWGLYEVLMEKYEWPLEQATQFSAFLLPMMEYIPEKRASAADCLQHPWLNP
Chain of UniProt Q9UQB9 (whole entry, looked up): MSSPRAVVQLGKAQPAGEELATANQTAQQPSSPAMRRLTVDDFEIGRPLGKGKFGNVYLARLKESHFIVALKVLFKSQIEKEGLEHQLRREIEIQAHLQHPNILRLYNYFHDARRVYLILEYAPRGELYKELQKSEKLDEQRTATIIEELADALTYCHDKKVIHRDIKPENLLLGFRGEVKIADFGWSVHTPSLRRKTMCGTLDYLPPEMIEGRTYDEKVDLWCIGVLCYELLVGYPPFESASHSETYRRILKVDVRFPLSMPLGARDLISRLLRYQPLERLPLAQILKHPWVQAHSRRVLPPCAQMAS

Series 1
Structure (SMILES): Cc1ccc(NC(=O)c2ccc(CN3CCN(C)CC3)cc2)cc1Nc1nccc(-c2cccnc2)n1
Observed: enzyme activity
Action: inhibitor
Concentration: 0.5 µM
Baseline: control
target | remaining activity [%]
Aurora kinase C (AURKC, Homo sapiens, UniProt Q9UQB9) | 119
Ribosomal protein S6 kinase alpha-1 (RPS6KA1, Homo sapiens, UniProt Q15418) | 101
Protein kinase C epsilon type (PRKCE, Homo sapiens, UniProt Q02156) | 97.2
Tyrosine-protein kinase CSK (CSK, Homo sapiens, UniProt P41240) | 92.1
Ribosomal protein S6 kinase beta-1 (RPS6KB1, Homo sapiens, UniProt P23443) | 94.8
NUAK family SNF1-like kinase 1 (NUAK1, Homo sapiens, UniProt O60285) | 98.8
Beta-adrenergic receptor kinase 1 (GRK2, Homo sapiens, UniProt P25098) | 112
SRSF protein kinase 3 (SRPK3, Homo sapiens, UniProt Q9UPE1) | 98
Serine/threonine-protein kinase PAK 2 (PAK2, Homo sapiens, UniProt Q13177) | 102

Series 2
SMILES: CN(C)C(=O)Cn1cc(-c2nc([C@@](C)(c3ccc(-c4cnc(N)nc4)cc3)C3CC3)no2)cn1
Concentration: 1 µM
target | assay | remaining binding [%]
Mitogen-activated protein kinase 1 (MAPK1, Homo sapiens, UniProt P28482) | cell-free assay, competition with immobilised ligand | 100
Muscle, skeletal receptor tyrosine-protein kinase (MUSK, Homo sapiens, UniProt O15146) | cell-free assay, competition with immobilised ligand | 100
Serine/threonine-protein kinase Nek2 (NEK2, Homo sapiens, UniProt P51955) | cell-free assay, competition with immobilised ligand | 97
Phosphatidylinositol 4,5-bisphosphate 3-kinase catalytic subunit alpha isoform (PIK3CA, Homo sapiens, UniProt P42336, M1043I) | cell-free assay, competition with immobilised ligand | 100
Calcium/calmodulin-dependent protein kinase type 1G (CAMK1G, Homo sapiens, UniProt Q96NX5) | cell-free assay, competition with immobilised ligand | 100
Tyrosine-protein kinase ABL1, non-phosphorylated (ABL1, Homo sapiens, UniProt P00519, F317I) | binding, competition with immobilised ligand | 96
Ribosomal protein S6 kinase alpha-6, N-terminal kinase domain (RPS6KA6, Homo sapiens, UniProt Q9UK32) | cell-free assay, competition with immobilised ligand | 96
Serine/threonine-protein kinase MRCK gamma (CDC42BPG, Homo sapiens, UniProt Q6DT37) | competition binding | 87
Protein kinase C iota type (PRKCI, Homo sapiens, UniProt P41743) | cell-free assay, competition with immobilised ligand | 93
Mitogen-activated protein kinase 8 (MAPK8, Homo sapiens, UniProt P45983) | cell-free assay, competition with immobilised ligand | 51
Myosin light chain kinase (MYLK3, Homo sapiens, UniProt Q32MK0) | cell-free assay, competition with immobilised ligand | 100
Ephrin type-A receptor 4 (EPHA4, Homo sapiens, UniProt P54764) | cell-free assay, competition with immobilised ligand | 100
Phosphatidylinositol 4,5-bisphosphate 3-kinase catalytic subunit alpha isoform (PIK3CA, Homo sapiens, UniProt P42336, I800L) | cell-free assay, competition with immobilised ligand | 54

Series 3
Target: Centromere-binding protein 1, full length, N-terminal tag (CBF1, Saccharomyces cerevisiae, UniProt P17106, residues 1-351)
Chain of UniProt P17106 (whole entry, looked up): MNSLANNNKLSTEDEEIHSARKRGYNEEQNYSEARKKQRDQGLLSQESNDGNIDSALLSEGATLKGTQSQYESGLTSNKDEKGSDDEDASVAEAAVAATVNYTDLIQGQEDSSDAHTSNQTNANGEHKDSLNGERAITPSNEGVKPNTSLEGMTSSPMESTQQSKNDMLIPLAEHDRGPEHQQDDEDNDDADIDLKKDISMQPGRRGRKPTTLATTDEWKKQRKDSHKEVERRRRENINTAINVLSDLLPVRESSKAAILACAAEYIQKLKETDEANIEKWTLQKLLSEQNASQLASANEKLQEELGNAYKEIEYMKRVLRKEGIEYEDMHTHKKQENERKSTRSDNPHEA
Technique: protein-binding microarray
Form: double-stranded DNA, one strand shown
Sample: in vitro
Concentration: 0.8 µM
Notes: whole 60-bp probe, no competitor
Direction: higher = stronger binding
All sequences stand within: … GTCTTGATTCGCTTGACGCTGCTG
Oligonucleotide | fluorescence intensity [a.u.]
CTAGAAATTACTCATCAGGCAATAACCTATGCTTTC | 506
CTAATGTGTACATTTTGTATCACGTGCAATATTTTC | 16300
CCTAACTACTATAACCACGTGAAATAGCTTCGTACA | 2810
CTATCCTTAAGAGCACACGTTTTAATTAGCAACTTC | 650
CTAATATGCAAATATCACGTAGTTAAAAAACTATTC | 598
GAATCAACTATTAATGGGGTGACTACAGTGTATTAG | 541
GAACAATGGTGAACTAACGTGCTGTTGCGCTTATAG | 566
CTACATACAGAACGTAACATCAAAAAACAACCGTTC | 494

Series 4
Target: Ras GTPase-activating protein-binding protein 1, full length (G3BP1, Homo sapiens, UniProt Q13283)
Chain of UniProt Q13283 (whole entry, looked up): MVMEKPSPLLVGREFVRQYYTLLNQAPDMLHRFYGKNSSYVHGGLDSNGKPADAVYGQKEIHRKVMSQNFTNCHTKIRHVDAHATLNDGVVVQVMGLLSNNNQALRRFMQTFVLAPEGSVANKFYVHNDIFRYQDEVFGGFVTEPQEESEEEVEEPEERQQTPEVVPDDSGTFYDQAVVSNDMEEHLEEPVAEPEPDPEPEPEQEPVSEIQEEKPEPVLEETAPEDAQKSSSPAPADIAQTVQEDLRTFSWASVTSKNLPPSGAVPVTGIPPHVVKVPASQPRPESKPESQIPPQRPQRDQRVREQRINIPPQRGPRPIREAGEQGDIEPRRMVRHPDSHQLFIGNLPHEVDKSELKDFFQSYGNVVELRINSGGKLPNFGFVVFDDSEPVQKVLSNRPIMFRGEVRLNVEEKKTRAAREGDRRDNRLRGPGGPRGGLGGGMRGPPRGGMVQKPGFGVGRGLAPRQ
Technique: RNA Bind-n-Seq
Form: RNA
Sample: in vitro
Concentration: 200 nM
Notes: whole 134-nt RNA, ends assumed
Added: 150 mM KCl
Baseline: input library
Direction: higher = stronger binding
All sequences stand within: GGGAGUUCUACAGUCCGACGAUC … UGGAAUUCUCGGGUGUCAAGG
Oligonucleotide | log2 enrichment
ACCAUGCAGGUGGGCAUCUUUGGGAAGUGGGGCAAGGGGGGGAUAUGGAGGGGGGUAACACUUUGGGAACAGGUGGUCCCAGGUCGUUUC | 1.02
CACAGACAACACGCACCCACACAGACACAGAGGGAAGGGGUUGGGAUGGGGACAGGGUGCACAGCAGGGCGGGGUAGGACCCCAGCCAAA | 1.97
CAAGUCCUGUGCUACACAUCGUAUGUACCGAAUCGGAAAAGGAAAAGGGAAAAGGGAAAGUAUUAUGUUACGCCGUUCGGAUCUGCACUU | -1.04
ACCAUGCAGGUGGGCAUCUUUGGGAAGUGGGGCAAGGGGGGGAUAGGGAGGGGGGUAACACUUUGGGAACAGGUGGUCCAAAGUCGUUUC | 1.22
UCUCCACCUGCUGAGCUCCCCAGUUUGAGGCGGAGCACACGCCAAAAGACCACGGGCUCCUGUGCUAGUACCAGGUAAUUUGUUUUUUUU | 0.556
UCAAGUCCUGUGCUACACAUCGUAUGUACCGAAUCGGAGGUUUUUUUGGUUUGGAAAGUAUUAUGUUACGCCGUUCGGAUCUGCACUUCC | -1.12
CCUGUGCUACACAUCGUAUGUACCGAAUCGGGGAAAAAAAGGGGUGGGGUUUUUUUGGGGAAAGUAUUAUGUUACGCCGUUCGGAUCUGC | 0.233
AGUCCUGUGCUACACAUCGUAUGUACCGAAUCAAACCCCCCCAAAUUUAAAUUUAAAAAAGUAUUAUGUUACGCCGUUCGGAUCUGCACU | -0.008
